Published values from different studies.
Parts stem from different laboratories: compare values within a part only. Positions count from the first letter of the parent shown.
Sequence of UniProt Q00534 (whole entry, looked up): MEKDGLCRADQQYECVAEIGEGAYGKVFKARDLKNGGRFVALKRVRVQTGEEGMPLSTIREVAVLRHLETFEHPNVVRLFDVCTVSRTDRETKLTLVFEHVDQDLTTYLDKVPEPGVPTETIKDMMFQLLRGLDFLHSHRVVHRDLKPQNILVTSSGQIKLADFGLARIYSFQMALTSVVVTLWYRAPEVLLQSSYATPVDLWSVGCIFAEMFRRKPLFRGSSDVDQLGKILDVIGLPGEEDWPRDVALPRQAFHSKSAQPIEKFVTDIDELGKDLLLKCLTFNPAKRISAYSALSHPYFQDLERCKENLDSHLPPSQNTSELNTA
Sequence of UniProt Q16644 (whole entry, looked up): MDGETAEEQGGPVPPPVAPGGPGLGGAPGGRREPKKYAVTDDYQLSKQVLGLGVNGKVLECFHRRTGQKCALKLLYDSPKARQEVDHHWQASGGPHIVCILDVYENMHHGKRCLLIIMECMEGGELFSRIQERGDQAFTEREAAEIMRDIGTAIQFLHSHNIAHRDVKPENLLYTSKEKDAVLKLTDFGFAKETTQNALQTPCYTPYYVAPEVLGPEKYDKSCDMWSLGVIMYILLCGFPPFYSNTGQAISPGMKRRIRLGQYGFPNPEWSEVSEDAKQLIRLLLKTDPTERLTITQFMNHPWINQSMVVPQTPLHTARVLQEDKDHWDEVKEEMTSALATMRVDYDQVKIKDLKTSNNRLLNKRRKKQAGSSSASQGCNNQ
Sequence of UniProt P51617 (whole entry, looked up): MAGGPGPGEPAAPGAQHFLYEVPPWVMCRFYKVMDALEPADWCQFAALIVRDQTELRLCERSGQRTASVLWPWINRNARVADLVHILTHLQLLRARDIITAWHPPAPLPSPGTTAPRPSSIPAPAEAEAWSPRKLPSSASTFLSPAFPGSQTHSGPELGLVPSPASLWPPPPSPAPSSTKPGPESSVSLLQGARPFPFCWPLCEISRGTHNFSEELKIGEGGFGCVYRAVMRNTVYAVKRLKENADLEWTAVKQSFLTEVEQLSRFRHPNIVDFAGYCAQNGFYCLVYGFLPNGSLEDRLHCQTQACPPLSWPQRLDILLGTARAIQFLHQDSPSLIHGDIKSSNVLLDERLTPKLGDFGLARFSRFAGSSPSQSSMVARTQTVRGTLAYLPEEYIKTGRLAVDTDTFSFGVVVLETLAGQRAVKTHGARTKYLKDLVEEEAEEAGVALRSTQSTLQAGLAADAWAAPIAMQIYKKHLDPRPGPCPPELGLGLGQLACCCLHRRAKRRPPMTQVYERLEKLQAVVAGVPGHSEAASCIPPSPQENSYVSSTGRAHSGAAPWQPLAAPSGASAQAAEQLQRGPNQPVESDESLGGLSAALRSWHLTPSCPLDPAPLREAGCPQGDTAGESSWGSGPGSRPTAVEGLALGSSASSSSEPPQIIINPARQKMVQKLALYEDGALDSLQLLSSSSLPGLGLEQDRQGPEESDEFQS
Sequence of UniProt P00519 (whole entry, looked up): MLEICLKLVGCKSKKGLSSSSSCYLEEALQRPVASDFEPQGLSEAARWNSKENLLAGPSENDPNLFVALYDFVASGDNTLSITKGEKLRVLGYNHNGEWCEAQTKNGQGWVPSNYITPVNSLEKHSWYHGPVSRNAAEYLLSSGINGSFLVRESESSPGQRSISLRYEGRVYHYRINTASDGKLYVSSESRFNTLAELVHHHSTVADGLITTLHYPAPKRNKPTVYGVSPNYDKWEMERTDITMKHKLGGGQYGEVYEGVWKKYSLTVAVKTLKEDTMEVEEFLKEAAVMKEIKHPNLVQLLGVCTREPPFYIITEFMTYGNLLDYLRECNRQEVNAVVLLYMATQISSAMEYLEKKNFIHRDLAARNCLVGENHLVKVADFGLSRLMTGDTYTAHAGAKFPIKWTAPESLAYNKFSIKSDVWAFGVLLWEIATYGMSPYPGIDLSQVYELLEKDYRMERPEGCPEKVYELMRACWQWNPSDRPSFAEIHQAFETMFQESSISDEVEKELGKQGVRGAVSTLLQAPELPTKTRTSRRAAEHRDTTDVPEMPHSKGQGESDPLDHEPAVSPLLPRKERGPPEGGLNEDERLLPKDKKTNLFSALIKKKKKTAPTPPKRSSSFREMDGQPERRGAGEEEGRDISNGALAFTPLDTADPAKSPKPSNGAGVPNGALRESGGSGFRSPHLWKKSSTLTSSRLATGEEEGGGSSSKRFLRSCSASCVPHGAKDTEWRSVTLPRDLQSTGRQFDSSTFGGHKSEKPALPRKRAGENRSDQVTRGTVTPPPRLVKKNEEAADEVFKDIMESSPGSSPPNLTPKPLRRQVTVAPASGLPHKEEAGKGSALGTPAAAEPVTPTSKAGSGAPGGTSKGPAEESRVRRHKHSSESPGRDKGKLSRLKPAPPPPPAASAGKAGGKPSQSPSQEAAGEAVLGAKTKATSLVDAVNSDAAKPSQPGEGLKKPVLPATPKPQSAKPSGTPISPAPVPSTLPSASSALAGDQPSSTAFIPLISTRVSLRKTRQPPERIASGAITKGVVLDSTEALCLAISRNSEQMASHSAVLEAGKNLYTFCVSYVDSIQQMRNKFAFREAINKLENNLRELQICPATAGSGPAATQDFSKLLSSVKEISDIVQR
Sequence of UniProt O75582 (whole entry, looked up): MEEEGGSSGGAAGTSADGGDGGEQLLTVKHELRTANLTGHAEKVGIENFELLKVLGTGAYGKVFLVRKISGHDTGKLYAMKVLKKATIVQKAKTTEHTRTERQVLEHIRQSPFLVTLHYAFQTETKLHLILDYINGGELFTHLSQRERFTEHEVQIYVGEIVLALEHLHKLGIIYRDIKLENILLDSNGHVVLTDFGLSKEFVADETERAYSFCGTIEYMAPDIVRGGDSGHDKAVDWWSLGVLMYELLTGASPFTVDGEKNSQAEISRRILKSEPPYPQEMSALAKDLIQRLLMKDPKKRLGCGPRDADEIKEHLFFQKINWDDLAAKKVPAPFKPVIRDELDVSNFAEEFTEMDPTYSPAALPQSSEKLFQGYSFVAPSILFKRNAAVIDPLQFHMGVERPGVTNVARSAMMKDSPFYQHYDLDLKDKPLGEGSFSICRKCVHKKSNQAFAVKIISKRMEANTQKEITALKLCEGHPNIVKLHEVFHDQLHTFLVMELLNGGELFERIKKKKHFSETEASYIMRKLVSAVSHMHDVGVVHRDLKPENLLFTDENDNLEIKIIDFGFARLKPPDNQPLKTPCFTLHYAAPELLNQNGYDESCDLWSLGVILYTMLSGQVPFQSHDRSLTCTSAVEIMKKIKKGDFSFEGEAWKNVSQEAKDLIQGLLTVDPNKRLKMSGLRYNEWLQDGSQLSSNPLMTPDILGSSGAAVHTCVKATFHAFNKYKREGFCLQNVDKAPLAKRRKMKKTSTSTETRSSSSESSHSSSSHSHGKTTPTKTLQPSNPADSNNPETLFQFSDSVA
Sequence of UniProt Q08881 (whole entry, looked up): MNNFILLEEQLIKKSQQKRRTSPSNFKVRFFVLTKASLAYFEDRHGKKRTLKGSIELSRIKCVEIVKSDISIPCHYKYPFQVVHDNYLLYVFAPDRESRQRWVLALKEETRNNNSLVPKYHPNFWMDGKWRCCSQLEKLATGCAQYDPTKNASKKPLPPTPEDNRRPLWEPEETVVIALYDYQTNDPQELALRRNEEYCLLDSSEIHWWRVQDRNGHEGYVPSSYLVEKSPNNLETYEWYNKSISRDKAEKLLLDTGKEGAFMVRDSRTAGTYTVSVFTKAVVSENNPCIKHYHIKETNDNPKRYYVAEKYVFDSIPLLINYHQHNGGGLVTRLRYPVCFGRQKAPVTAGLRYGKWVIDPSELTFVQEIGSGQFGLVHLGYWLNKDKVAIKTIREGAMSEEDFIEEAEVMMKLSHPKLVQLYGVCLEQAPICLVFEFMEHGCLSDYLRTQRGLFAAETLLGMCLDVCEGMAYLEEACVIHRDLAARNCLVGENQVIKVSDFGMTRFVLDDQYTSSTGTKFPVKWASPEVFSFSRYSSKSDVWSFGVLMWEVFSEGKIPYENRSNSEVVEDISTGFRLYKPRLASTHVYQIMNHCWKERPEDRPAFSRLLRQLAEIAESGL

Series 1 — read-out: cell-free assay; method: competition with immobilised ligand; concentration: 1 µM; quantity: remaining binding
Compound: Cc1noc([C@H]2C[C@@H](c3ccc(C(F)(F)F)cc3)CN(C(=O)N3CCS(=O)(=O)C3)C2)n1
Serine/threonine-protein kinase 33 (STK33, Homo sapiens, UniProt Q9BYT3): 100%
Serine/threonine-protein kinase TAO2 (TAOK2, Homo sapiens, UniProt Q9UL54): 76%
Serine/threonine-protein kinase ULK3 (ULK3, Homo sapiens, UniProt Q6PHR2): 77%
Ribosomal protein S6 kinase alpha-1, N-terminal kinase domain (RPS6KA1, Homo sapiens, UniProt Q15418): 87%
Proto-oncogene tyrosine-protein kinase ROS (ROS1, Homo sapiens, UniProt P08922): 86%
Tyrosine-protein kinase ITK/TSK (ITK, Homo sapiens, UniProt Q08881): 100%
Phosphorylase b kinase gamma catalytic chain, liver/testis isoform (PHKG2, Homo sapiens, UniProt P15735): 100%
Serine/threonine-protein kinase RIO2 (RIOK2, Homo sapiens, UniProt Q9BVS4): 100%
Testis-specific serine/threonine-protein kinase 3 (TSSK3, Homo sapiens, UniProt Q96PN8): 100%
Dual specificity mitogen-activated protein kinase kinase 3 (MAP2K3, Homo sapiens, UniProt P46734): 98%
Interleukin-1 receptor-associated kinase 1 (IRAK1, Homo sapiens, UniProt P51617): 100%
Activin receptor type-1 (ACVR1, Homo sapiens, UniProt Q04771): 100%
Serine/threonine-protein kinase PAK 4 (PAK4, Homo sapiens, UniProt O96013): 100%

Series 2 — method: DHFR PCA, dose-response; medium: yeast; together with: (+)-ABA, dose series; direction: lower = more sensitive; quantity: ABA EC50
Target: ABI1, truncated, D143A, DHFR fusion (Arabidopsis thaliana, UniProt P49597)
Setting: Hill fit, not affinity, not high confidence
Starting sequence: PYL1, truncated, DHFR fusion (Arabidopsis thaliana, UniProt Q8VZS8); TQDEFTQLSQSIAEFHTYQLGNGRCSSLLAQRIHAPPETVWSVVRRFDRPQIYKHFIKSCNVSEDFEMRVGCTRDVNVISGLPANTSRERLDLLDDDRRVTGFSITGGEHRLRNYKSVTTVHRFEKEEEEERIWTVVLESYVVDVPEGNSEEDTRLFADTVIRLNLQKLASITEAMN
V100D: 787 µM
F47G: 86.9 µM
D92K: 276 µM
G102D: 0.835 µM
L169D: 0.0549 µM
Y141H: 88.1 µM
V121Q: 8.86 µM
T120P: 1570 µM

Series 3 — method: universal PBM; molecule type: double-stranded DNA, one strand shown; medium: in vitro; concentration: 600 nM; direction: higher = stronger binding; quantity: E-score
Target: Sal-like protein 4, full length isoform A (SALL4, Homo sapiens, UniProt Q9UJQ4, residues 1-1053)
Sequence of UniProt Q9UJQ4 (whole entry, looked up): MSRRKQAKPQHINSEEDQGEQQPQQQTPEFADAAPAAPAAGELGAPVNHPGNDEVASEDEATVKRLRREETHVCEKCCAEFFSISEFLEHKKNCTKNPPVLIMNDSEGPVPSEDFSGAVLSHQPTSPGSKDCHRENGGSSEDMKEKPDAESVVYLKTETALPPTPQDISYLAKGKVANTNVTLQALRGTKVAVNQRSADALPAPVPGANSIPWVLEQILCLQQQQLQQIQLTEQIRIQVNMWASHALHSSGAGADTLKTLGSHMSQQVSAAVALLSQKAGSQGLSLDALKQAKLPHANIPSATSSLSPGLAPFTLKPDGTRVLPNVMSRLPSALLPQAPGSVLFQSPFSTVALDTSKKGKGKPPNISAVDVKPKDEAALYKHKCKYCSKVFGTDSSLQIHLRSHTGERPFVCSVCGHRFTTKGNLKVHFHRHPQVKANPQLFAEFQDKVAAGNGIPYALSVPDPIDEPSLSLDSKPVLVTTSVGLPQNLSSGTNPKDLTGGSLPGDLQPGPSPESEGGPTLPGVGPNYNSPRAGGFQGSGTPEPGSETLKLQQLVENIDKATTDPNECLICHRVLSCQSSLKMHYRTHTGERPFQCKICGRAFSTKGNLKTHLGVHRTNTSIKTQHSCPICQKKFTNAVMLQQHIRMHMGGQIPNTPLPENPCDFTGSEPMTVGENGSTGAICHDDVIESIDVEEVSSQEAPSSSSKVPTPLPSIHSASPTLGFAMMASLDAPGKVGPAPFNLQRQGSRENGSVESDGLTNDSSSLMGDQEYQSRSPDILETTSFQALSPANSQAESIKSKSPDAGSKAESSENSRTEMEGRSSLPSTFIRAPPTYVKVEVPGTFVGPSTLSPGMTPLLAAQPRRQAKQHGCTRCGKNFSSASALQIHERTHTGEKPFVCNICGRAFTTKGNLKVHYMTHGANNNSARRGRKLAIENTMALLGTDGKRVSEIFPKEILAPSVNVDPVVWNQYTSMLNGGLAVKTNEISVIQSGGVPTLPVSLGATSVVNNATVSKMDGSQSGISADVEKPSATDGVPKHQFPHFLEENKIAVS
Setting: 8-mer, flanks averaged, mean of replicates
AACACCAG: -0.108
CCACGTTA: 0.164
ATCCGGAA: 0.0529
AGTTCCTG: -0.189
GCATCAAA: 0.171
ATGGGACG: -0.237
AATGTGTG: 0.132
GATACGGC: -0.244

Series 4 — read-out: enzyme activity; action: inhibitor; concentration: 0.5 µM; relative to: control; quantity: remaining activity
Compound: Nc1nccc(-c2c(-c3ccc(F)cc3)ncn2C2CCNCC2)n1
3-phosphoinositide-dependent protein kinase 1 (PDPK1, Homo sapiens, UniProt O15530): 103%
Ephrin type-B receptor 1 (EPHB1, Homo sapiens, UniProt P54762): 99.9%
Cyclin-dependent kinase 6, with cyclin D3 (CDK6, Homo sapiens, UniProt Q00534): 95.5%
Dual specificity tyrosine-phosphorylation-regulated kinase 3 (DYRK3, Homo sapiens, UniProt O43781): 96%
Cyclin-dependent kinase 4, with cyclin D3 (CDK4, Homo sapiens, UniProt P11802): 104%
Calcium/calmodulin-dependent protein kinase type II subunit beta (CAMK2B, Homo sapiens, UniProt Q13554): 97.7%
Tyrosine-protein kinase ABL1 (ABL1, Homo sapiens, UniProt P00519): 101%
Cyclin-dependent kinase 1, with cyclin B (CDK1, Homo sapiens, UniProt P06493): 96.8%
Ephrin type-B receptor 4 (EPHB4, Homo sapiens, UniProt P54760): 91.5%
Ribosomal protein S6 kinase alpha-5 (RPS6KA5, Homo sapiens, UniProt O75582): 97.9%
Mitogen-activated protein kinase kinase kinase kinase 4 (MAP4K4, Homo sapiens, UniProt O95819): 76.3%
Homeodomain-interacting protein kinase 2 (HIPK2, Homo sapiens, UniProt Q9H2X6): 106%
Serine/threonine-protein kinase 17A (STK17A, Homo sapiens, UniProt Q9UEE5): 97.8%
Serine/threonine-protein kinase WNK3 (WNK3, Homo sapiens, UniProt Q9BYP7): 95.3%
Tyrosine-protein kinase Blk (BLK, Homo sapiens, UniProt P51451): 102%
Ribosomal protein S6 kinase alpha-6 (RPS6KA6, Homo sapiens, UniProt Q9UK32): 109%
MAP kinase-activated protein kinase 3 (MAPKAPK3, Homo sapiens, UniProt Q16644): 99.4%

For quick reference, copied from above (series 1):
Testis-specific serine/threonine-protein kinase 3 (TSSK3, Homo sapiens, UniProt Q96PN8): 100%
Dual specificity mitogen-activated protein kinase kinase 3 (MAP2K3, Homo sapiens, UniProt P46734): 98%
Interleukin-1 receptor-associated kinase 1 (IRAK1, Homo sapiens, UniProt P51617): 100%
Activin receptor type-1 (ACVR1, Homo sapiens, UniProt Q04771): 100%
